Results of several laboratories.
Cell line: MCF-10A

Compound | effect on | method | time | notes | IC50
C=C1C(=O)OC2C1CCC(=C)C1CC(OC(C)=O)C(=C)C12 (stereo not drawn) | cell growth or viability | MTT | 48 h |  | 29.6 µM
CCCCCCCCC=CCCCCCCCC(=O)OC(COC(=O)Cc1c(C)n(C(=O)c2ccc(Cl)cc2)c2ccc(OC)cc12)COP(=O)([O-])OCC[N+](C)(C)C (stereo not drawn) | cell growth or viability | SRB | 72 h |  | 182 µM
NS(=O)(=O)c1ccc(/N=N/c2ccc(O)c(/C=N/c3cc(Cl)ccc3O)c2)cc1 | cell growth or viability | MTT | 72 h |  | 8.75 µM
C#CCNC(=O)C(CC)C1CCC(C)C(C(C)C(O)C(C)C(=O)C(CC)C2OC3(C=CC(O)C4(CCC(C)(C5CCC(O)(CC)C(C)O5)O4)O3)C(C)CC2C)O1 (stereo not drawn) | viability | MTT | 96 h |  | > 10 µM
COc1cc(C(=O)c2[nH]c(N)nc2-c2cccs2)cc(OC)c1OC | cell growth or viability | SRB |  |  | 1.89 µM
CCN(CC)c1ccc2c(c1)[O][Pd]([CH2]C#N)[N](Cc1ccccc1)c1ncccc1N=C2 | cell growth or viability | MTT | 48 h |  | > 100 µM
COC(=O)c1ccc(-n2nc(C(F)(F)F)cc2-c2cc(OC)c(OC)c(OC)c2)cc1 | cell growth or viability | SRB |  |  | 23.2 µM
CCC(C(=O)O)C1CCC(C)C(C(C)C(O)C(C)C(=O)C(CC)C2OC3(C=CC(NCc4cn(CSc5ccccc5)nn4)C4(CCC(C)(C5CCC(O)(CC)C(C)O5)O4)O3)C(C)CC2C)O1 (stereo not drawn) | cell growth or viability | resazurin | 72 h |  | 2.51 µM
NS(=O)(=O)c1ccc(/N=N/c2ccc(O)c(/C=N/c3cccc(O)c3)c2)cc1 | cell growth or viability | MTT | 48 h |  | 20.9 µM
N#C[CH2][Pd]1[O]c2ccc(Br)cc2C=Nc2cccnc2[N]1Cc1ccccc1 | cell growth or viability | MTT | 48 h |  | > 100 µM
NS(=O)(=O)c1ccc(/N=N/c2ccc(O)c(/C=N/CCc3c[nH]c4ccccc34)c2)cc1 | cell growth or viability | MTT | 72 h |  | 16.4 µM
Cc1ccc(S(=O)(=O)[O][Re-2]2(=[C]=O)(=[C]=O)(=[C]=O)[n+]3ccc(-c4ccccc4)c4ccc5c(-c6ccccc6)cc[n+]2c5c43)cc1 | cell growth or viability | resazurin | 72 h |  | 3.46 µM
O=C(c1ccc2ccccc2c1)c1cn(-c2ccccc2)nc1C1=Nn2c(CCCc3nnc4n3N=C(c3nn(-c5ccccc5)cc3C(=O)c3ccc5ccccc5c3)CS4)nnc2SC1 | cell growth or viability | MTT | 48 h |  | 48.4 µM
NS(=O)(=O)c1ccc(/N=N/c2ccc(O)c(/C=N/c3nccs3)c2)cc1 | cell growth or viability | MTT | 72 h |  | 13.1 µM
CCCC/C=N/NC(=O)c1cc2cc(Nc3nccc(-c4cccnc4)n3)ccc2[nH]1 | cell growth or viability | MTT | 48 h |  | > 50 µM
NS(=O)(=O)c1ccc(/N=N/c2ccc(O)c(/C=N/c3ccccn3)c2)cc1 | cell growth or viability | MTT | 48 h |  | 29.2 µM
O=C(C[c-]1cccc1)Oc1ccc(-n2cccc2)cc1.[Fe+2].c1cc[cH-]c1 | cell growth or viability | MTT |  |  | 288 µM

Compound | effect on | method | time | notes | IC50
CCC(C(=O)O)C1CCC(C)C(C(C)C(O)C(C)C(=O)C(CC)C2OC3(C=CC(NCc4cn(C56CC7CC(CC(C7)C5)C6)nn4)C4(CCC(C)(C5CCC(O)(CC)C(C)O5)O4)O3)C(C)CC2C)O1 (stereo not drawn) | cell growth or viability | resazurin | 72 h |  | 1.26 µM
CC(=O)[O][Ag]=[c]1n(C)ccn1CC(O)c1ccccc1 (stereo not drawn) | cell growth or viability | MTT | 72 h |  | > 200 µM
NS(=O)(=O)c1ccc(/N=N/c2ccc(O)c(C=O)c2)cc1 | cell growth or viability | MTT | 72 h |  | 31.8 µM
O=[C]=[Re-2]1(=[C]=O)(=[C]=O)([O]S(=O)(=O)c2ccc3ccccc3c2)[n+]2ccc(-c3ccccc3)c3ccc4c(-c5ccccc5)cc[n+]1c4c32 | cell growth or viability | resazurin | 72 h |  | 2.79 µM
O=C(c1ccc2ccccc2c1)c1cn(-c2ccccc2)nc1C1=Nn2c(Cc3nnc4n3N=C(c3nn(-c5ccccc5)cc3C(=O)c3ccc5ccccc5c3)CS4)nnc2SC1 | cell growth or viability | MTT | 48 h |  | ≥ 50 µM
NS(=O)(=O)c1ccc(/N=N/c2ccc(O)c(/C=N/c3cc([N+](=O)[O-])ccc3O)c2)cc1 | cell growth or viability | MTT | 48 h |  | 13.9 µM
CCN(CC)c1ccc2c(c1)[O][Pd]([CH2]C#N)[N](C1CCCCC1)c1ncccc1N=C2 | cell growth or viability | MTT | 48 h |  | > 100 µM
O=[C]=[Re-2]1(=[C]=O)(=[C]=O)([O]S(=O)(=O)c2cccc3ccccc23)[n+]2ccc(-c3ccccc3)c3ccc4c(-c5ccccc5)cc[n+]1c4c32 | cell growth or viability | resazurin | 72 h |  | 3.63 µM
CCC(C(=O)O)C1CCC(C)C(C(C)C(O)C(C)C(=O)C(CC)C2OC3(C=CC(NCc4cn(CCCO)nn4)C4(CCC(C)(C5CCC(O)(CC)C(C)O5)O4)O3)C(C)CC2C)O1 (stereo not drawn) | cell growth or viability | resazurin | 72 h |  | > 12.5 µM
Cc1ccc(/C=N/NC(=O)c2cc3cc(Nc4nccc(-c5cccnc5)n4)ccc3[nH]2)cc1 | cell growth or viability | MTT | 48 h |  | > 50 µM
Cc1ccc(S(=O)(=O)[O][Re-2]2(=[C]=O)(=[C]=O)(=[C]=O)[n+]3c(C)cc(-c4ccccc4)c4ccc5c(-c6ccccc6)cc(C)[n+]2c5c43)cc1 | cell growth or viability | resazurin | 72 h |  | 1.78 µM
CCC(C(=O)O)C1CCC(C)C(C(C)C(O)C(C)C(=O)C(CC)C2OC3(C=CC(NCc4cn(-c5ccc(C(C)=O)cc5)nn4)C4(CCC(C)(C5CCC(O)(CC)C(C)O5)O4)O3)C(C)CC2C)O1 (stereo not drawn) | cell growth or viability | resazurin | 72 h |  | 2.35 µM
Cc1cc(-c2ccccc2)c2ccc3c(-c4ccccc4)cc(C)[n+]4c3c2[n+]1[Re-2]4(=[C]=O)(=[C]=O)(=[C]=O)[O]S(=O)(=O)c1cccc2ccccc12 | cell growth or viability | resazurin | 72 h |  | 2.51 µM
Cc1cnc2c(ccc3c(C)c(C)cnc32)c1C.O=C([O-])Cc1ccccc1Nc1c(Cl)cccc1Cl.O=C([O-])Cc1ccccc1Nc1c(Cl)cccc1Cl.[Mn+2] | cell growth or viability |  |  | 3D culture | 36.7 µM
CC(=O)N[C@@H](Cc1c[nH]c2ccccc12)C(=O)[O][Re-2]1(=[C]=O)(=[C]=O)(=[C]=O)[n+]2c(C)cc(-c3ccccc3)c3ccc4c(-c5ccccc5)cc(C)[n+]1c4c32 | cell growth or viability | resazurin | 72 h |  | 3.04 µM
CCC(CCC(C)C1CCC2C3CCC4=CC(=O)CCC4(C)C3CCC12C)C(C)C (stereo not drawn) | cell growth or viability | resazurin | 24 h |  | 106 µg/mL
